# Experimental data collected from several papers.
# Each numbered part is a random draw from the data of one study; scales do not carry over between parts. Substitutions count along the parent as printed.

# Sample 1 — technique: RNAcompete; molecule type: RNA; sample: in vitro; tested at: 20 nM; setting: 7-mer, probes averaged, single round; baseline: mean of 7-mers; reading: higher = stronger binding
# Target: PABPC1L2, full length, GST fusion (mouse, UniProt A0ABA7IW68)
# Residues (chain): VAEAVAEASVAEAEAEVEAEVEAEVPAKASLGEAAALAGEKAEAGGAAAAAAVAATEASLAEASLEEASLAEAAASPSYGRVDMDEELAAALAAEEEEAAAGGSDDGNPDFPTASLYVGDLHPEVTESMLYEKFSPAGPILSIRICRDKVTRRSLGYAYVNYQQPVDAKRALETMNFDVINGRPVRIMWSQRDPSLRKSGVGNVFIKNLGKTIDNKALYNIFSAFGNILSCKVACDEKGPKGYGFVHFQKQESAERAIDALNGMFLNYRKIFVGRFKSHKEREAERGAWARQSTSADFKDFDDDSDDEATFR
Oligonucleotide,7-mer Z-score
CCCCGGA,-0.356
GUAUCGA,-0.126
AACAGAC,0.515
UUGGCAA,0.532
CUACCAG,-0.266
ACUUAAU,-0.0609
UGAGCUA,-0.113
AUUCAGG,0.0279
UCCCGUA,-0.344
UUAGACG,-0.119
UAAGUCC,-0.369
GGCUGUA,-0.00652
AGCUGCC,-0.121
AUACCAC,-0.0953

# Sample 2 — technique: protein binding microarray; molecule type: double-stranded DNA, one strand shown; sample: in vitro; tested at: not given; baseline: not given; reading: higher = stronger binding
# Target: Histone acetyltransferase KAT6A, winged helix 1, GST fusion (KAT6A, Homo sapiens, UniProt Q92794, residues 1-85)
# Setting: 8-mer, flanks averaged, mean of 2 arrays, mostly near background
# Construct (chain): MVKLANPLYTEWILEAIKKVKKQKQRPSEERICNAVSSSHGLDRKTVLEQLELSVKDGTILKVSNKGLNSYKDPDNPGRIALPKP
Oligonucleotide,E-score
AAGTTTTA,-0.0973
AACCCCCT,-0.185
ATCCGGTC,-0.0147
AACGACAT,-0.127
CTATAAGA,-0.11
CGTAGCCA,0.0511
ATGTTTAG,-0.0765
GCGCCACC,0.298
CCCGGTCG,0.389
ATTGCTCG,-0.239
GGTGTAGA,-0.123
TCAGCTGA,-0.121
AGGTGCCG,0.244
AAGCCATG,-0.179
CCGGGGCA,0.23
AGGGTTGG,-0.151
CGTATTAG,0.077
TTCATCAA,-0.111
AGATGGCA,-0.176
GGAGGAGA,-0.0467
ATAACGAT,-0.142
CGGGGACA,0.201
ATTGACAG,-0.065

# Sample 3 — technique: RNA Bind-n-Seq; molecule type: RNA; sample: in vitro; tested at: 200 nM; setting: whole 134-nt RNA, ends assumed; added: 150 mM LiCl; baseline: input library; reading: higher = stronger binding; library: 7-deaza-guanosine replaces G
# Target: Ras GTPase-activating protein-binding protein 1, full length (G3BP1, Homo sapiens, UniProt Q13283)
# Sequence of UniProt Q13283 (whole entry, looked up): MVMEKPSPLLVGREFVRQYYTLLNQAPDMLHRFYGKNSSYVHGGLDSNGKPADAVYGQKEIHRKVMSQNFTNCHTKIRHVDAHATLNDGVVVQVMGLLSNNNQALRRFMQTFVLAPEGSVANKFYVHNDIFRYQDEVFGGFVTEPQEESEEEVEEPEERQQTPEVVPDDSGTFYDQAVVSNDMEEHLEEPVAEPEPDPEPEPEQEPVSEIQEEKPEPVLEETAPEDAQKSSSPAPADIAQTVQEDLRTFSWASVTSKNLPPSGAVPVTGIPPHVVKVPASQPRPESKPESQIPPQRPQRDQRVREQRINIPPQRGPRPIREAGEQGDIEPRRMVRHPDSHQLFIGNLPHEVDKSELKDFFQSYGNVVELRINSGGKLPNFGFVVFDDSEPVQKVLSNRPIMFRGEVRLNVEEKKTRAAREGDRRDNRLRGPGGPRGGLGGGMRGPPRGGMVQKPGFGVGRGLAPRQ
# Shared flanks, not repeated: GGGAGUUCUACAGUCCGACGAUC … UGGAAUUCUCGGGUGUCAAGG
Oligonucleotide,log2 enrichment
UUGUGAUUAAGAUUUGUUCUUUUUCUCCCCUCUCUAUAGGAAGAUGAUCCCUAUGAUCUUGAAGAUGUUUCUGCACAGAAAUGAGGGAAA,0.204
UCCUUUGUGUUUACAAAAGCACUGACCCUUUACCUUUUCUUUAGCAAGAAGAAUGGAAUGAACAUAAUGCCAAAAUAAUUAAAUAUAUAA,1.74
AAGUCCUGUGCUACACAUCGUAUGUACCGAAUCGGGGCCCCGGGCCCCGGCCCCGGAAAGUAUUAUGUUACGCCGUUCGGAUCUGCACUU,-2.43
AAGUCCUGUGCUACACAUCGUAUGUACCGAAUCGGGUUUUGGGGUUUUGGGUUUUGGAAAGUAUUAUGUUACGCCGUUCGGAUCUGCACU,0.15
UCAAGUCCUGUGCUACACAUCGUAUGUACCGAAUCGGGCCCGGCCCGGGCCCGGGAAAGUAUUAUGUUACGCCGUUCGGAUCUGCACUUC,-0.944
GUAGGAAGUAAAAACAAAUGGAAAUGCUUCGGAUAGUGGCAGGGGUGGGGGUUGCUAAGGAAAGGGUGGGAUGGGAGUGGGUAAAGAGUU,0.239
GUCCUGUGCUACACAUCGUAUGUACCGAAUCAAACCCCCCCAAACCCCCAAACCCAAAAAAGUAUUAUGUUACGCCGUUCGGAUCUGCAC,-0.000707

# Sample 4 — technique: protein-binding microarray; molecule type: double-stranded DNA, one strand shown; sample: in vitro; tested at: not given; reading: higher = stronger binding
# Target: Max-binding protein MNT, bHLH-zipper, MAX partner unstated (MNT, Homo sapiens, UniProt Q99583, residues 220-300)
# Setting: k-mer, scored over probes, only values ≥0.25
# Construct (chain): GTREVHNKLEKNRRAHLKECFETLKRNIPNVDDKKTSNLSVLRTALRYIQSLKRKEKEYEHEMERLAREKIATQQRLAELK
Oligonucleotide,E-score
ATGCGGGA,0.27
CATGACCA,0.325
CGTGTCGA,0.305
CACACCCC,0.257
GCGGCGCA,0.262
CATGGCAG,0.348
CGTGTGAG,0.325
GTGGGAAC,0.29
ACATGCCA,0.386
CGCATGCA,0.416
GCATGACA,0.341
ATGCGGTG,0.255

# Sample 5 — target: CCNB1, cyclin fold, Cln2 fusion (human); technique: yeast growth competition, sequencing; sample: yeast; setting: weak parent motif; baseline: not given; reading: higher = stronger binding
# Parent: ORC1 docking peptide (human); PRARKRLELGNLG
Substitution,normalised enrichment score
E8Y,0.0116
N11A,0.321
L7K,1.42
R2D,0.288
G13Q,0.532
L7N,-0.000331
E8I,-0.125
K5A,0.0821
A3G,-0.566
N11Y,1.33
R2W,0.93
L12Q,0.375
G10V,0.189
A3F,0.424
G13E,1.18
L9H,0.371

# Sample 6 — technique: aptamer microarray, sandwich; molecule type: DNA with 2'F-ANA; sample: in vitro; tested at: 200 nM; added: Cy3 exosite-II aptamer, 400 nM; reading: higher = stronger binding; oligonucleotide: GGTTGGTGTGGTTGG
# Target: Prothrombin, mature alpha-thrombin (F2, Homo sapiens, UniProt P00734)
# Setting: whole 15-mer aptamer, many near background
Modification,mean fluorescence intensity [a.u.]
2'F-ANA at 2 5 8 9 12 14,84.7
2'F-ANA at 2 3 8 11 12 13 14 15,483
2'F-ANA at 2 3 4 5 10 11 13 14 15,78.2
2'F-ANA at 1 3 5 7 10 12 15,52.5
2'F-ANA at 2 6 7 8 10 14,89.8
2'F-ANA at 1 3 4 6 7 8 9 12 14,88.8
2'F-ANA at 4 5 6 7 8 9 10 15,51.5
2'F-ANA at 1 3 6 7 10 12 14,68.3
2'F-ANA at 1 3 7 8 10 11 12 14,65
2'F-ANA at 1 2 3 4 6 7 12 13 14,68.5
2'F-ANA at 2 3 8 12 13,1070
2'F-ANA at 1 2 8 14 15,57.4
2'F-ANA at 5 7 9 10 15,47.4
2'F-ANA at 1 2 3 4 6 7 10 12 15,90.1

# For quick reference, copied from above (sample 6):
Modification,mean fluorescence intensity [a.u.]
2'F-ANA at 2 3 4 5 10 11 13 14 15,78.2
2'F-ANA at 1 3 5 7 10 12 15,52.5
2'F-ANA at 2 6 7 8 10 14,89.8
2'F-ANA at 1 3 4 6 7 8 9 12 14,88.8
2'F-ANA at 4 5 6 7 8 9 10 15,51.5
2'F-ANA at 1 3 6 7 10 12 14,68.3
2'F-ANA at 1 3 7 8 10 11 12 14,65
2'F-ANA at 1 2 3 4 6 7 12 13 14,68.5
